# Experimental data pooled from the literature.
# Parts stem from different laboratories: compare values within a part only. Positions count from the first letter of the parent shown.

# Block 1
# Target: Interferon regulatory factor 3, full length, phosphomimetic (IRF3, Homo sapiens, UniProt Q14653, residues 1-427, S386D/S396D/S398D/S402D/T404D/S405D)
# Technique: protein-binding microarray
# Molecule type: double-stranded DNA, one strand shown
# Sample: in vitro
# Concentration: 2540 nM top
# Setting: 60-bp whole probe
# With: salmon DNA 0.4 mg/ml
# Reference: random background probes
# Reading: higher = stronger binding
# Constant ends, left off below: GCCTAGCAC … GTCTTGATTCGCTTGACGCTGCTG
# Residues (chain): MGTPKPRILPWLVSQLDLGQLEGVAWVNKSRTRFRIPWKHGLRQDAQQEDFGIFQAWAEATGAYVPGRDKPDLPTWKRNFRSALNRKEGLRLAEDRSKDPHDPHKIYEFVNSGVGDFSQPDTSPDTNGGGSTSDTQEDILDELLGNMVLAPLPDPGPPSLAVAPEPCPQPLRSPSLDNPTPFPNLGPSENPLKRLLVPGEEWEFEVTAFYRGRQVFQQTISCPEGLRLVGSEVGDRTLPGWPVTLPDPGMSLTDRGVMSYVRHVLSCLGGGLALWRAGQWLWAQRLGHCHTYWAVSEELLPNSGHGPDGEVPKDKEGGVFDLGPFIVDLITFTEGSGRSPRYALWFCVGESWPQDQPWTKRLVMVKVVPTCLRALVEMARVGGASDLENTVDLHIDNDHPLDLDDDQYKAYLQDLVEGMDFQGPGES
Strand,fitted relative affinity [z-score]
TTAGGACTTGGACTGGGTTAGTGCTAG,-0.995
CTGACTTTGGAGATGACTCAGTGCTAG,-0.232
TTAGGTCTGCTTCTCCTTTAGTGCTAG,0.0121
TTAGGACTGGGACTGGGTCAGTGCTAG,-1
GACGGTTTCCTTCTCCTGATGTGCTAG,9.99
TTAGGACCGCTTTTCCTTTAGTGCTAG,1.33
TTAGGACTGGGGACTCGGTTAGTGCTA,-1.15
TTGTTTTACAATTTGCTTTAGTGCTAG,1.56
GACGGTTTCGGTTTCGCGACGTGCTAG,9.86
CCGAAAATGCCCTTTTGGTGAGTGCTA,1.43
GACGATTCCAGTTTCGAGACGTGCTAG,3.26
TTAGATCTCCGTCTCGATTAGTGCTAG,1.09
TCAATTATAACACTCTTACTGTGCTAG,0.4
TCATTATTTACTCTCTAACTGTGCTAG,0.695
GACGGTTTCGGACTGGTGACGTGCTAG,4.59
TATAATTTTGTCATCTATAAGTGCTAG,0.379
GACGGTTTCCTTATTCTGACGTGCTAG,7.28
CTCTACCTCGTCATAGTAACGTGCTAG,0.16
TTATATTTCAGTTCCGATTAGTGCTAG,3.27

# Block 2
# Target: Histone acetyltransferase KAT6A, both winged helices, GST fusion (KAT6A, Homo sapiens, UniProt Q92794, residues 1-181)
# Technique: protein binding microarray
# Molecule type: double-stranded DNA, one strand shown
# Sample: in vitro
# Concentration: not given
# Setting: 8-mer, flanks averaged, mean of 2 arrays, mostly near background
# Reference: not given
# Reading: higher = stronger binding
# Residues (chain): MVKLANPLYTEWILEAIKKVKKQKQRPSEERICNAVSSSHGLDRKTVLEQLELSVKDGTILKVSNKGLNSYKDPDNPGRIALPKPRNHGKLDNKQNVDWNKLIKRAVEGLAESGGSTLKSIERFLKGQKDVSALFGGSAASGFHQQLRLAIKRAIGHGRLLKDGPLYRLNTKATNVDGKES
Strand,E-score
GATGGTGC,-0.152
AACCAAAA,-0.0845
AACATACA,-0.0513
GGCACCCC,-0.0207
ATTCGCTG,-0.0289
ATTTCTGG,-0.159
AGATACGA,-0.0159
CATCACGC,0.14
CCATGAAG,-0.124
AGCGGCGA,0.249
AGGTTTTG,-0.0815
CCCTGGTA,-0.206
ATCCTCCG,0.00235
CTGGGGTA,-0.0679
AGCCCGTA,0.116
GCCGAGCA,0.183
CTGCGGCC,0.213
GGATCGTA,-0.00314
AGCGCATG,0.153
AAAGTATG,-0.131
CGCCAATC,-0.0128
AAGAAGTC,-0.0923
ATGTCTCC,0.0229
AAGGTCGT,-0.153
GAAGTATA,0.0357

# Block 3
# Target: CREBRF, bZIP domain (human)
# Technique: DHFR protein complementation
# Sample: yeast
# Setting: single substitutions, most at no-binding floor
# Reference: wild-type JUN-FOS pair
# Reading: higher = stronger binding
# Starting sequence: JUN, bZIP domain (human); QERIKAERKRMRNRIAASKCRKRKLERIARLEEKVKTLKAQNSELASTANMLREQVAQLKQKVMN; partner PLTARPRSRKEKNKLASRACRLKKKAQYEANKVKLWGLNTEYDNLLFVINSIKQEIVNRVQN
Substitution,binding fitness [natural log]
A29P,-1.49
L31R,-1.5
A46P,-1.54
E54N,-1.45
E33L,-1.48
L31V,-1.44
T48R,-1.38
S43L,-1.39
L45C,-1.53
R53V,-1.56
V35K,-1.51
V56K,-1.56
E32F,-1.39
R53A,-1.44
L31T,-1.51
T37M,-1.36
A46L,-1.46
R30D,-1.16
M51C,-1.46
Q55T,-1.5
A29G,-1.48

# Block 4
# Target: Prothrombin, mature alpha-thrombin (F2, Homo sapiens, UniProt P00734)
# Technique: aptamer microarray, sandwich
# Molecule type: DNA with 2'F-ANA
# Sample: in vitro
# Concentration: 200 nM
# Setting: whole 15-mer aptamer, many near background
# With: Cy3 exosite-II aptamer, 400 nM
# Reading: higher = stronger binding
# Strand: GGTTGGTGTGGTTGG
Modification,mean fluorescence intensity [a.u.]
2'F-ANA at 2 5 7 10 14,47.6
2'F-ANA at 2 6 7 8 11 13 14,127
2'F-ANA at 1 3 7 9 10 11 12,119
2'F-ANA at 2 3 5 6 7 9 10 12 13 14,52.9
2'F-ANA at 5 9 12 14,55.2
2'F-ANA at 2 6 7 9 11 13 15,226
2'F-ANA at 3 6 10 11 13 14 15,381
2'F-ANA at 2 3 4 5 7 8 10 12 13 14 15,50.6
2'F-ANA at 1 2 3 5 7 8 10 11 13,45.6
2'F-ANA at 1 2 3 11 13 14,67.6
2'F-ANA at 2 4 5 14,45.9
2'F-ANA at 1 3 6 8 12 13 14 15,115
2'F-ANA at 2 6 7 8 9 10 11 12 14,84.3
2'F-ANA at 1 4 5 6 7 8 9 10 12 13 14 15,50.5
2'F-ANA at 1 2 3 7 10 11 14,46.8
2'F-ANA at 1 3 4 6 9 11 12 13 15,203
2'F-ANA at 1 2 6 7 8 9 11 12 13 14 15,68.3
2'F-ANA at 3 7 8 9 11 12 13 15,1120
2'F-ANA at 3 4 8 9 11 15,585
2'F-ANA at 2 4 7 8 10 11 13,71.3
2'F-ANA at 1 2 4 5 8 9 11 12 14,51.8
2'F-ANA at 2 3 4 7 8 10 12,365
2'F-ANA at 4 5 7 8 9 10 11 14,43.5
2'F-ANA at 2 3,966

# Repeated from above (block 3):
Substitution,binding fitness [natural log]
A29P,-1.49
L31R,-1.5
A46P,-1.54
E54N,-1.45
E33L,-1.48
L31V,-1.44
T48R,-1.38
S43L,-1.39
